Measurements pooled from the literature.
Numbered parts are unrelated; each lists some results of a single study. “And” joins repeats or separate records; there may be more than shown.
Chain of UniProt P10721 (whole entry, unmodified, looked up): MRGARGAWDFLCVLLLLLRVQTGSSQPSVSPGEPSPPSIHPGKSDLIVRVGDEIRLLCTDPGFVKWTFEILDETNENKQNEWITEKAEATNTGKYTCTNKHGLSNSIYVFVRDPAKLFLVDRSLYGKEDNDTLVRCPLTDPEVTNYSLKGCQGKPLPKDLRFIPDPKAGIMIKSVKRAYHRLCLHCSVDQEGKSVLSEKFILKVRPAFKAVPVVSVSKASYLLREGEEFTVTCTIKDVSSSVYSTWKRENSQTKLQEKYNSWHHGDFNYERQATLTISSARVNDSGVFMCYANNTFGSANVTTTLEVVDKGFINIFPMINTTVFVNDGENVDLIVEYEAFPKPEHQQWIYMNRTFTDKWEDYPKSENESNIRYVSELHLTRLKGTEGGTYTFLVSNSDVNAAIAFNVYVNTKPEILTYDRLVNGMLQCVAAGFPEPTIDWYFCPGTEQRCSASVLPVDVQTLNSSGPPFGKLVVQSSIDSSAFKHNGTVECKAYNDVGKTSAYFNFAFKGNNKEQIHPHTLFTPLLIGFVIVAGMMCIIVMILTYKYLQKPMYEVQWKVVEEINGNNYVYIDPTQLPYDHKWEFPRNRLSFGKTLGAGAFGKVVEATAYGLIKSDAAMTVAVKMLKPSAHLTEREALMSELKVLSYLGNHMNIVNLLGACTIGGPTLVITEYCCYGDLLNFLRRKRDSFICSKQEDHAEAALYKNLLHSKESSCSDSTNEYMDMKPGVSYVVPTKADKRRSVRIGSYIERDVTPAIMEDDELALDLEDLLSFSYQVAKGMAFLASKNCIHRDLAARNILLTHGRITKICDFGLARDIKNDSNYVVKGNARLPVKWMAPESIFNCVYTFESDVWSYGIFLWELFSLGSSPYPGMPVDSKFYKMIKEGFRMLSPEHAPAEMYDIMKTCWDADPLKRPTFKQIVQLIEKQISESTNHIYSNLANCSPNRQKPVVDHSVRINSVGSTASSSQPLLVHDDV
Chain of UniProt Q9BYT3 (whole entry, looked up): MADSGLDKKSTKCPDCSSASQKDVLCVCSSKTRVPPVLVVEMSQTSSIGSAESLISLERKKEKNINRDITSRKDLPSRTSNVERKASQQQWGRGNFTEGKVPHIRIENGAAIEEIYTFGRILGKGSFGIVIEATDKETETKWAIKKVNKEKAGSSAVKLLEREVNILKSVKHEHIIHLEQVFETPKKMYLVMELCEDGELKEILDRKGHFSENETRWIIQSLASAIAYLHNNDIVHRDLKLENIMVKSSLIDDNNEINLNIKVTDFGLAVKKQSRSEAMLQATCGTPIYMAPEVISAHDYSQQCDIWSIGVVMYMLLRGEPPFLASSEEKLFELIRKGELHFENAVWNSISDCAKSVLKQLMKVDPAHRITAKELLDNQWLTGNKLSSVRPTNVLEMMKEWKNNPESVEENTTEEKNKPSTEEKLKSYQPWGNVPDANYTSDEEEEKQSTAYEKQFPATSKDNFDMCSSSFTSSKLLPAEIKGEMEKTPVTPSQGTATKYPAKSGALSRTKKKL
Chain of UniProt Q99683 (whole entry, looked up): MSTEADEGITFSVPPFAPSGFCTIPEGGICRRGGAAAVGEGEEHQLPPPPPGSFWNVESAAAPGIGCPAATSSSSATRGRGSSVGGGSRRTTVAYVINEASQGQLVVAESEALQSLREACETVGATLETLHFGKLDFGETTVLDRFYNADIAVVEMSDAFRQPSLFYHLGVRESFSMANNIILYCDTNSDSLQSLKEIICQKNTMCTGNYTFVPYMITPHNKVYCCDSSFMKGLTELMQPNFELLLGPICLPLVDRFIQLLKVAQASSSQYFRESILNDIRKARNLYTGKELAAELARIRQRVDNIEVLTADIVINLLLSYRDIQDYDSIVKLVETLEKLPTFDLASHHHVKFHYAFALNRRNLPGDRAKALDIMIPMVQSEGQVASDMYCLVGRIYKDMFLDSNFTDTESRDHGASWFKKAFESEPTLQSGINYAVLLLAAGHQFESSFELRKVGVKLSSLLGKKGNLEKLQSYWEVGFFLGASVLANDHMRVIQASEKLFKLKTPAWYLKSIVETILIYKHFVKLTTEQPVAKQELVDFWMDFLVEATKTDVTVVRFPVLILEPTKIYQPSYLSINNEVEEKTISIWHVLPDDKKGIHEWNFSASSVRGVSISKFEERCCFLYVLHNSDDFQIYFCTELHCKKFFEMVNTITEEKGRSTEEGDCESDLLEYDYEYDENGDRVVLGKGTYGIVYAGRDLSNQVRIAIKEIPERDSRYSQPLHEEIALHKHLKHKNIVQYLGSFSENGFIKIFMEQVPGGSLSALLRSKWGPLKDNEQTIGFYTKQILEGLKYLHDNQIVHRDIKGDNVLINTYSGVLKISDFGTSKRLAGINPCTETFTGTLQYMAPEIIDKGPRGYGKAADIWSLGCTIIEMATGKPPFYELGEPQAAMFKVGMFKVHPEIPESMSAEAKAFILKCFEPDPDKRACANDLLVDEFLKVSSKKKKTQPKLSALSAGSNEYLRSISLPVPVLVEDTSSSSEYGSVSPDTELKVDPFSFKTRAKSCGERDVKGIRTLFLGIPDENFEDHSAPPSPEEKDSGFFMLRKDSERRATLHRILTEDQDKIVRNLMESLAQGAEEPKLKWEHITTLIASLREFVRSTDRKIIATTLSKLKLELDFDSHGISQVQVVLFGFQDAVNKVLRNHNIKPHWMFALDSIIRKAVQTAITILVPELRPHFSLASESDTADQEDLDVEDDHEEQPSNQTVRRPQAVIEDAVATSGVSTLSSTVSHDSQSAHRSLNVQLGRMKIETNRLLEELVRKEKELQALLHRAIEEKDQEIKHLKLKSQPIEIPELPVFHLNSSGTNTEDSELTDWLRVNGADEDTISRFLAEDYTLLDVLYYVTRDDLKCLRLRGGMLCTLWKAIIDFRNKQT
Chain of UniProt Q6ZWH5 (whole entry, looked up): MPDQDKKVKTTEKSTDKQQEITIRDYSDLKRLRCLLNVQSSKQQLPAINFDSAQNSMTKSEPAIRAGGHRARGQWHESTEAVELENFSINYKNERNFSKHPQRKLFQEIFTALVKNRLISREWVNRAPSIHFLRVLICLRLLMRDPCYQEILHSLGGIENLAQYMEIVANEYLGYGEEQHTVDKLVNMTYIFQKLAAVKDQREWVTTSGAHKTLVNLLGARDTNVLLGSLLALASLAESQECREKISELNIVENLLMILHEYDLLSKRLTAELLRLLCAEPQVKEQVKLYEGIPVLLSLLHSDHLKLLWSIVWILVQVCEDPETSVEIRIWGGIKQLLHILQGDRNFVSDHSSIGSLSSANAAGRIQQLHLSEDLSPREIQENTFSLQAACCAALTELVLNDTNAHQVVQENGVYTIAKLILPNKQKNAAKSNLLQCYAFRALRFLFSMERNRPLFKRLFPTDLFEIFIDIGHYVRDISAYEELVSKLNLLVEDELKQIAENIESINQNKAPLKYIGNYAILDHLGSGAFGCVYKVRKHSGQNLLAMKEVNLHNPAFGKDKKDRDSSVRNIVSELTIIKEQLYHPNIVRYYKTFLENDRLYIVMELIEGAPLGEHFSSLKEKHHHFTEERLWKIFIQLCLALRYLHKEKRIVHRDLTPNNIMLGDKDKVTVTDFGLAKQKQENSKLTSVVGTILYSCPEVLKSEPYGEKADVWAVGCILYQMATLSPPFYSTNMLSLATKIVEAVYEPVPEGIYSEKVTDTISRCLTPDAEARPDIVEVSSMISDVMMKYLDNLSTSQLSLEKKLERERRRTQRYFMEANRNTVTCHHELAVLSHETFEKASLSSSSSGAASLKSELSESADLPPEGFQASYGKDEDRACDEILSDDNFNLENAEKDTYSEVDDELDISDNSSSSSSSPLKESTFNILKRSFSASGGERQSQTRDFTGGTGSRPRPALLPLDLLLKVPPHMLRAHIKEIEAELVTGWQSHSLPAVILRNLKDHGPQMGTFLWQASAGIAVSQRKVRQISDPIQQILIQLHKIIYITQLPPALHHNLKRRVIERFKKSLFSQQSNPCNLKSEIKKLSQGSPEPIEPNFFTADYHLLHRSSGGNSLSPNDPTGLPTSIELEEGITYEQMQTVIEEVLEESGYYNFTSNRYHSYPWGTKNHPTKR
Chain of UniProt O60285 (whole entry, looked up): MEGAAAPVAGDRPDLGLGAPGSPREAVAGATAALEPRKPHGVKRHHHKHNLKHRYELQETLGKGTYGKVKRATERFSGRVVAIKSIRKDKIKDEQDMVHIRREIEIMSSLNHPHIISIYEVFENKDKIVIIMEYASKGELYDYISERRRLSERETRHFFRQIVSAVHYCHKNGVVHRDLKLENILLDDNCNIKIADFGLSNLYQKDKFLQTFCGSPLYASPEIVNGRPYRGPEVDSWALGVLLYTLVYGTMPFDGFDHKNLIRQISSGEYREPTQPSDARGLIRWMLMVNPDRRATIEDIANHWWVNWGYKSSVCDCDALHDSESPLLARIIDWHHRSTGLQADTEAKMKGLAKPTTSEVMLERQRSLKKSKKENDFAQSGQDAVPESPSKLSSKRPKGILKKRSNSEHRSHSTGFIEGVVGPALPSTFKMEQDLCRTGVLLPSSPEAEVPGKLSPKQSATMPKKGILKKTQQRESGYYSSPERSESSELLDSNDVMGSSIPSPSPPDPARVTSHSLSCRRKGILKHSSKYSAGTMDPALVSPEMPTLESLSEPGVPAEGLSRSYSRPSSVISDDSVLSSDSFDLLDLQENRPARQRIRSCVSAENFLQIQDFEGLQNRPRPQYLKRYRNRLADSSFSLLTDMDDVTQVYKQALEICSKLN
Chain of UniProt Q02750 (whole entry, looked up): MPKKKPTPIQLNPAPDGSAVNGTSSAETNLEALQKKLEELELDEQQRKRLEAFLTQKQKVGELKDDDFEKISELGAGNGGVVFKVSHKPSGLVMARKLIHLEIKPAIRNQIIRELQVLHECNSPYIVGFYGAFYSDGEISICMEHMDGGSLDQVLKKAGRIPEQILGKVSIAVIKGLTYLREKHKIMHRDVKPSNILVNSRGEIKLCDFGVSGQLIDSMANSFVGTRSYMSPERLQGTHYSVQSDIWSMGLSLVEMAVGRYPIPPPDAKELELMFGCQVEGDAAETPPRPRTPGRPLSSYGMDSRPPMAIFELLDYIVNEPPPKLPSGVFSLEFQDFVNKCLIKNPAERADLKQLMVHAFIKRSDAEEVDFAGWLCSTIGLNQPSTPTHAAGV

Study 1
Cell line: mouse MPNST tumor cells
Technique: high-content nuclear imaging
Item: cell number
Tested at: 10 µM
Time: 12 h
Notes: mean of 2 replicates
Reference: plate mean
Direction: higher = more cells
Compound	nuclei count
Cc1ccc(-c2cc(C(F)(F)F)nn2-c2ccc(S(N)(=O)=O)cc2)cc1	1.49 z-score and 1.94 z-score
CN(C)[C@H]1CN(C2CCc3cccc(F)c32)C[C@@H]1c1ccc(N2CCN(S(C)(=O)=O)CC2)cc1 (stereo partly drawn)	0.804 z-score
Nc1nc2c(cnn2CCc2ccccc2)c2nc(-c3ccco3)nn12	0.756 z-score
CC(C)OC(=O)NC1CCN(Cc2cc(Cl)c3cccnc3c2O)CC1	-4.65 z-score
OCC(CO)N[C@H]1C[C@](O)(CO)[C@@H](O)[C@H](O)[C@H]1O	0.237 z-score

Study 2
SMILES: CC(C)n1cnc(-c2ccc(F)cc2)c1-c1ncc(C(=O)Nc2ccc(N3CCN(C)CC3)cc2)[nH]1
Technique: phase 2a trial
Species: idiopathic pulmonary fibrosis patients
dose	notes	patients with bronchitis
60 mg once daily	grade 4 emergent event	0%
all arms pooled	grade 5 emergent event	0%
all arms pooled	grade 3 emergent event	0%

Study 3
Cell line: A-375
Tested at: 100 µM
Time: 36 h
SMILES	viability [%]
CC(=O)NO	113
CCN(CC)C(=O)c1ccc(O)c(OC)c1	121
CC(C)NCC(O)c1ccc(O)c(O)c1 (stereo not drawn)	97.6
NCCc1c[nH]cn1	119
COc1ccc2c(c1)c(CC(=O)OCC(=O)O)c(C)n2C(=O)c1ccc(Cl)cc1	96.5
C[C@@H](Oc1cc(-c2cnn(C3CCNCC3)c2)cnc1N)c1c(Cl)ccc(F)c1Cl	-1.04

Study 4
SMILES: Cc1nc(Nc2ncc(C(=O)Nc3c(C)cccc3Cl)s2)cc(N2CCN(CCO)CC2)n1
Action: inhibitor
target	tested at	inhibition [%]
Citron Rho-interacting kinase (CIT, Homo sapiens, UniProt O14578)	10 µM	< 50
5'-AMP-activated protein kinase catalytic subunit alpha-2 (PRKAA2, Homo sapiens, UniProt P54646)	1 µM	< 50
Serine/threonine-protein kinase TNNI3K (TNNI3K, Homo sapiens, UniProt Q59H18)	10 µM	100
Mitogen-activated protein kinase kinase kinase 5 (MAP3K5, Homo sapiens, UniProt Q99683)	10 µM	< 50
Tyrosine-protein kinase receptor UFO (AXL, Homo sapiens, UniProt P30530)	10 µM	< 50

Study 5
SMILES: CS(=O)(=O)c1cc(C2(NC(=O)c3cncc4c3cnn4-c3ccc(F)cc3)CC2)ccn1
Observed: cell-free assay
Technique: competition with immobilised ligand
Tested at: 1 µM
target	remaining binding [%]
Serine/threonine-protein kinase 3 (STK3, Homo sapiens, UniProt Q13188)	100
Dual specificity protein kinase CLK2 (CLK2, Homo sapiens, UniProt P49760)	100
Ankyrin repeat and protein kinase domain-containing protein 1 (ANKK1, Homo sapiens, UniProt Q8NFD2)	96
Serine/threonine-protein kinase 33 (STK33, Homo sapiens, UniProt Q9BYT3)	90
Ribosomal protein S6 kinase beta-1 (RPS6KB1, Homo sapiens, UniProt P23443)	100
Dual specificity mitogen-activated protein kinase kinase 1 (MAP2K1, Homo sapiens, UniProt Q02750)	81
Dual specificity mitogen-activated protein kinase kinase 2 (MAP2K2, Homo sapiens, UniProt P36507)	80
Mitogen-activated protein kinase kinase kinase 2 (MAP3K2, Homo sapiens, UniProt Q9Y2U5)	84
Mast/stem cell growth factor receptor Kit (KIT, Homo sapiens, UniProt P10721, T670I/V559D)	84
Phosphatidylinositol 5-phosphate 4-kinase type-2 gamma (PIP4K2C, Homo sapiens, UniProt Q8TBX8)	100
cGMP-dependent protein kinase 2 (PRKG2, Homo sapiens, UniProt Q13237)	89
Protein kinase C iota type (PRKCI, Homo sapiens, UniProt P41743)	100
Serine/threonine-protein kinase Nek10 (NEK10, Homo sapiens, UniProt Q6ZWH5)	97
Calcium/calmodulin-dependent protein kinase type II subunit beta (CAMK2B, Homo sapiens, UniProt Q13554)	100
Mast/stem cell growth factor receptor Kit (KIT, Homo sapiens, UniProt P10721)	96
Serine/threonine-protein kinase WNK3 (WNK3, Homo sapiens, UniProt Q9BYP7)	100
Inhibitor of nuclear factor kappa-B kinase subunit epsilon (IKBKE, Homo sapiens, UniProt Q14164)	100
Bone morphogenetic protein receptor type-1A (BMPR1A, Homo sapiens, UniProt P36894)	100
Dual specificity protein kinase CLK4 (CLK4, Homo sapiens, UniProt Q9HAZ1)	100
Mitogen-activated protein kinase 7 (MAPK7, Homo sapiens, UniProt Q13164)	75
Serine/threonine-protein kinase ULK3 (ULK3, Homo sapiens, UniProt Q6PHR2)	100
NUAK family SNF1-like kinase 1 (NUAK1, Homo sapiens, UniProt O60285)	91
Mitogen-activated protein kinase kinase kinase 20 (MAP3K20, Homo sapiens, UniProt Q9NYL2)	86
Phosphatidylinositol 4-kinase beta (PI4KB, Homo sapiens, UniProt Q9UBF8)	96
Macrophage colony-stimulating factor 1 receptor (CSF1R, Homo sapiens, UniProt P07333)	79

Study 6
Species: mouse
Medium: microsomes or S9
Tested at: 2 µM
Time: 0.5 h
SMILES	remaining compound [%]
Cc1noc(C)c1-c1cc(CCC2CNCCO2)ncn1 (stereo not drawn)	> 100
CS(=O)(=O)N1CCN(CCCOc2ccc3c(c2)C(=O)C(c2cnc4ccccc4c2)=C3c2ccc(F)cc2F)CC1	69.8
O=C1OCc2c(-c3ccccc3)sc(-c3ccc4c(c3)OCO4)c21	36.9
Cc1ccc(-c2noc(CCC(=O)N(C)C)n2)c(=O)n1C(C)C	0.179
O=c1[nH]nc2c3scc(-c4ccc(F)cc4)c3ncn12	71.6
COC(=O)c1cc(Cl)ccc1C1CCN(CCN2CCc3ccccc3C2=O)CC1	0.668
C=CCn1c(=O)n(Cc2cccnc2)c2nc(N)nc(Cl)c21	28.5

A few entries again (study 2):
dose	notes	patients with bronchitis
60 mg once daily	grade 4 emergent event	0%
all arms pooled	grade 5 emergent event	0%
all arms pooled	grade 3 emergent event	0%
